Measured values pooled from the literature.
Parts stem from different laboratories: compare values within a part only.

Study 1 — method: RNA Bind-n-Seq; form: RNA; matrix: in vitro; concentration: 200 nM; setting: whole 134-nt RNA, ends assumed; added: 150 mM LiCl; relative to: input library; direction: higher = stronger binding; library: 7-deaza-guanosine replaces G
Target: Fragile X messenger ribonucleoprotein 1, C-terminal low-complexity region (Fmr1, Mus musculus, UniProt P35922)
Constant ends, left off below: GGGAGUUCUACAGUCCGACGAUC … UGGAAUUCUCGGGUGUCAAGG
| Strand | log2 enrichment |
| --- | --- |
| UCAAGUCCUGUGCUACACAUCGUAUGUACCGAAUCGGUGGUUUGGAAAAAAAGGAAAGUAUUAUGUUACGCCGUUCGGAUCUGCACUUCC | -0.695 |
| UCCUGUGCUACACAUCGUAUGUACCGAAUCGGGUUUUUUGGUUUUUUGGUUUUUUGGGGAAAGUAUUAUGUUACGCCGUUCGGAUCUGCA | -1.34 |
| CUCAAGUCCUGUGCUACACAUCGUAUGUACCGAAUCGGGGUGGGGUGGGUGGGAAAGUAUUAUGUUACGCCGUUCGGAUCUGCACUUCCA | -1.09 |
| ACCAUGCAGGUGGGCAUCUUUGGGAAGUGGGGCAAGGGGGGGAUAAAGAGGGGGGUAACACUUUGGGAACAGGUGGUCCCAGGUCGUUUC | 1.02 |
| UAACUUUAGAGGAGGAUCUGAUGCAUAUGGCAGUGGACGUGGAUUUGGGGAUGGCUAUAAUGGGUAUGGAGGAGGACCUGGAGGUGGCAA | 0.777 |
| ACCAUGCAGGUGGGCAUCUUUGGGAAGUGGGGCAAGGGGGGGAUAGGGAGGGGGGUAACACUUUGGGAACAGGUGGUCCCAGGUCCUUUC | 0.471 |
| AGUCCUGUGCUACACAUCGUAUGUACCGAAUCGGGUUUUUUUGGGAAAAAGGGAGGGAAAGUAUUAUGUUACGCCGUUCGGAUCUGCACU | -2.13 |
| CAAGUCCUGUGCUACACAUCGUAUGUACCGAAUCGGAAAAGGAAAAGGAAAAGGGGAAAGUAUUAUGUUACGCCGUUCGGAUCUGCACUU | -1.13 |
| UGUGAGGUGGAUUUUGUUUAUUUUUUUAGCUCAUUUCCAGGGGUGGGAAUUUUUUUUUAAUAUGUGUCAUGAAUAAAGUUGUUUUUGAAA | 1.02 |

Study 2 — method: RNA Bind-n-Seq; form: RNA; matrix: in vitro; concentration: 365 nM; relative to: no-protein control; direction: higher = stronger binding
Target: RNA binding protein fox-1 homolog 2, RRM domain, GST-SBP tag (RBFOX2, Homo sapiens, UniProt O43251-10, residues 100-194)
Setting: natural RNA segment, single round, ends assumed
Constant ends, left off below: GGGAGUUCUACAGUCCGACGAUC … UGGAAUUCUCGGGUGCCAA
Target sequence (chain): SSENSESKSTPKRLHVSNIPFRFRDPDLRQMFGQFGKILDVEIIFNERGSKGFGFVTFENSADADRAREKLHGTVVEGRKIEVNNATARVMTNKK
| Strand | RBNS enrichment (R) |
| --- | --- |
| AUUUAAAAAAACAACAACAACAUUUUUUCAACAAUUUCAACAAUGACACAAAAAUUCACAUGGAAAUGGGGAAGAUGGUCUGUUUUGACAGAAACUGACAGGAAUCAAUC | 0.364 |
| ACAUCAUGUAUACGCAGCAUUUAUUUGGAGUUUUUCCUUUGGCUUUUUUUCCUCUCUUUUUCAGUUAUGAAACUUGUAUGCAUGGAUUUCACAUCUCCAUAGCUAGACCC | 0.567 |
| CGCACACUGGGGCCCCGGGUUCAGCCUGGCCUGCCCGUGCCCUGGUGAAUCACCUGGCUGAGCAGUUCCCCUGGAGCCCCUUCGGGAGCAGGGCUGUGUCCCAGAUGGGC | 0.377 |
| UCUCAUACAUUUUGAGACCCUUGGGUCAUUUAUUACUUUUUACAAACUAGUUCCUCUCUUUUUUUCUGCCAAGUCCUGAAUUGAAAACUGUAGGCUUCCUUGCACAGAUG | 1.78 |
| UUUAUAGCAGGUCCCAGUGAACCACAAGAAUGGCGAGGGUUAUCUGGUUACAGUUGGAUCAAUCAGUAUAUAUCAGAUUUCUGGUGUUUCAAGCAAGAAGCGGGCGGAGU | 0.617 |
| UGGAAGAUCUCAGAGCCAAGUCCUUCUACUCACGAGUAGAAGGACCGUUGGCCAACAGCCCUUUCACUUACCAUCCCUGCCUCCCCCGUCCUGUUCCCUUUGACUUCAGC | 0.229 |
| AUUAAAGUAGGAGAAAGAAUGUGCUGAGUGUUUUCCUCCCUUUGCCUCUACCUGGCCCUCAUCCCAACAGCCCAGCAAGGGGAGAGAGAAAGAGAAUUCUUUUCUAUAGA | 0.881 |
| CCUCUGGUUUCUAAUACUGGCAGGACCAACACACAUACUUUAGUGGGAAUAUAAUCUGUUUAGACGAUAAUAGAGGGAAAUGCCAUAAUUAACAAAUCUCCCUUCACUCA | 0.438 |
| UUAGUGCUCGGUUCCCUGAGAAGCCUGAGAAAAGCUUCCCCAACCAAAUGUUCUUAAAGACUUUUUGCUAUGUAGUAUCUACCUUGUAGAAACCUUGCAGAUUGCAGAGU | 0.348 |
| UAGAACCUCUGGUCUUCCUUUCUCUGUCCCGAGUACUGAAAUUGCAGCAGACACCUUCAUGCCUUGCCCAGGCUUCUAGUCUUUUCCUCCUUCUGGUAAUGACUACUUCU | 0.902 |

Study 3 — method: competition protein-binding microarray; form: double-stranded DNA, one strand shown; matrix: in vitro; concentration: 2 µM; added: Pho4 competitor, 0.05 µM; direction: higher = stronger binding; constant ends, left off below: … GTCTTGATTCGCTTGACGCTGCTG
Target: Centromere-binding protein 1, full length, His-tagged (CBF1, Saccharomyces cerevisiae, UniProt P17106, residues 1-351)
Sequence of UniProt P17106 (whole entry, looked up): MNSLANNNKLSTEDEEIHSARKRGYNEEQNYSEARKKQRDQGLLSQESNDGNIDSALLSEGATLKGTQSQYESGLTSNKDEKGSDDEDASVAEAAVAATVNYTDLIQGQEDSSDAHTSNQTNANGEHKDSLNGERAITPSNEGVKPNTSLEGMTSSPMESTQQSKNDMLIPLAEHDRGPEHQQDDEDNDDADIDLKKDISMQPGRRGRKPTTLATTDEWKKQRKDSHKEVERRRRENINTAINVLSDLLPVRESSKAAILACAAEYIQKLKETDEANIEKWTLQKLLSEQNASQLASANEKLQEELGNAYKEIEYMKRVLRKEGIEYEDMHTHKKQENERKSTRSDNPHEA
Setting: whole 60-bp probe, lowest competitor level
| Strand | fluorescence intensity [a.u.] |
| --- | --- |
| ATACCCTCAATTGGGCTCGTGTTGAGCAAGTTAAAC | 88.5 |
| CCTCCGTACCACCCAAACGTGTAGTTTTGATGTTTT | 80.2 |
| GACAGCGACGGTAAACGCGTGTCGGTCGAGAAGGAG | 80.6 |
| AAGGTAGCCAAGAATACCGTGATGGTTGCTTAGTAT | 102 |
| CGTCCTAGTGATTTTCACGTGGGTTCCATGAGGAAG | 810 |
| TTCGAAAAAAATACCCACGTGCTTTTTGGAAATGAA | 2240 |
| CGGGGTTAAGTTTGATGGGTGGGTGGCTTGCAGCAG | 73 |
| CCGAAAAGTGAAGATGATGTGATATTGGGCGAGAGC | 88.3 |
| TCGGATTACTTTACCCACGTGCGATATCATCAATTA | 1190 |

Further values, each from its own experiment
| Molecule | target | assay | system | setting | how to read | endpoint | value |
| --- | --- | --- | --- | --- | --- | --- | --- |
| PhoQ, residues 284 288 289 292 302 303 SNGLAW | PhoP, residues 12 14 15 18 19 SMASL (Escherichia coli, UniProt P23836) | Sort-seq, refers to: YFP reporter | E. coli | PhoQ-PhoP variant library, added: 10 µM Mg2+ | relative to: high Mg2+ state, higher = stronger signaling | fold induction | 10.2 |

Excerpt of the above (study 2):
| Strand | RBNS enrichment (R) |
| --- | --- |
| CGCACACUGGGGCCCCGGGUUCAGCCUGGCCUGCCCGUGCCCUGGUGAAUCACCUGGCUGAGCAGUUCCCCUGGAGCCCCUUCGGGAGCAGGGCUGUGUCCCAGAUGGGC | 0.377 |
| UCUCAUACAUUUUGAGACCCUUGGGUCAUUUAUUACUUUUUACAAACUAGUUCCUCUCUUUUUUUCUGCCAAGUCCUGAAUUGAAAACUGUAGGCUUCCUUGCACAGAUG | 1.78 |
